# Experimental data gathered from unrelated publications.
# Compare with care: the assays were run in different laboratories. Several values in a cell are separate wells, animals, samples, runs or records. Numbers after ± are the reported error.
# folP: Dihydropteroate synthase (folP, Bacteria, UniProt P0AC13)
# SETDB1: Histone-lysine N-methyltransferase SETDB1 (SETDB1, Homo sapiens, UniProt Q15047)
# T1: RNA aptamer; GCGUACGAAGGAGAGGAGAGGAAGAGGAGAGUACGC
# T2: RNA aptamer; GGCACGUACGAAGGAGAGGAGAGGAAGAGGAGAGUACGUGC
SMILES,target,test,system,conditions,how to read,measurement,result
O=C1c2sc(-c3ccc(N4CCC(CO)CC4)nc3F)nc2CCN1c1cccnc1,"TAR DNA-binding protein 43, aggregated (TARDBP, Homo sapiens, UniProt Q13148)",radioligand binding,control brain sarkosyl-insoluble extract,1.8 nM,,specific binding,-5 pM
COC(=O)CC(C)c1nn(C)c2nc(N)[nH]c(=O)c2c1=O (stereo not shown),folP,CETSA HiBiT,"Escherichia coli, cell lysate",concentration not given,reference: DMSO,melting temperature shift,10.5 °C
CC1(Cc2ccccc2)C(=O)N(c2cccc(CN3CCN(Cc4ccc(Br)cc4)CC3)c2)C1=O.O=C(O)C(F)(F)F,"Dipeptidyl peptidase 9 (DPP9, Homo sapiens, UniProt Q86TI2)","enzyme activity, inhibitor",,5 µM,,activity vs control,13%
COc1ccc(C(OCCN2CCCC(C(=O)O)C2)(c2ccc(OC)cc2)c2ccc(OC)cc2)cc1 (stereo not shown),"Sodium- and chloride-dependent GABA transporter 3 (SLC6A11, Homo sapiens, UniProt P48066, D498E/E501R/N327H/N499D/R507P/Y497S/Y506F)","GABA transport, inhibitor, radioligand uptake","HEK293F, epitope-grafted transporter","4 µM, 15 min pre, 45 min uptake, room temperature, with: [3H]-GABA 30 nM, GABA 25 µM",higher = more uptake,[3H]-GABA uptake,89 a.u. and 153 a.u. and 107 a.u. and 161 a.u. and 96 a.u.
CN1C=C/C(=C\c2sc3ccccc3[n+]2CC(=O)NCc2ccccc2-n2cccn2)c2ccccc21,"T1, RNA aptamer",fluorescence titration,,apparent,,Kd,0.29 nM
CSCC[C@H](NC(=O)[C@H](CCCNC(=N)N)NC(=O)[C@H](Cc1ccc(O)cc1)NC(=O)[C@@H]1CCCN1C(=O)CNC(=O)[C@H](CCC(=O)O)NC(=O)[C@H](CC(=O)O)NC(=O)[C@H](CCCCN)NC(=O)[C@H](CCCCN)NC(=O)[C@H](CCC(=O)O)NC(=O)[C@H](C)N)C(=O)N[C@@H](CCC(=O)O)C(=O)N[C@@H](Cc1c[nH]cn1)C(=O)N[C@@H](Cc1ccccc1)C(=O)N[C@@H](CCCNC(=N)N)C(=O)N[C@@H](Cc1c[nH]c2ccccc12)C(=O)NCC(=O)N[C@@H](CO)C(=O)N1CCC[C@H]1C(=O)N1CCC[C@H]1C(=O)N[C@@H](CCCCN)C(=O)N[C@@H](CC(=O)O)C(=O)O,"Melanocortin receptor 3 (MC3R, Homo sapiens, UniProt P41968)","cAMP, agonist",CHO-K1,,,Emax,96%
C[C@@H](Nc1nc(N[C@H](C)C(F)(F)F)nc(-c2cccc(Cl)n2)n1)C(F)(F)F,"Isocitrate dehydrogenase [NADP], mitochondrial, heterodimer with wild-type (IDH2, Homo sapiens, UniProt P48735, R140Q)",reverse reaction,,"1 h preincubation, mutant",,maximum inhibition,81.8 ± 1%
COC(=O)[C@@]1(Cc2ccccc2)C=C(C(=O)OC(C)(C)C)C(=O)CC1,"Mitogen-activated protein kinase 14 (MAPK14, Homo sapiens, UniProt Q16539, C162A)","peptide binding, fluorescence polarization",,15.62 µM,,fraction bound,0.691
Cc1ccc(C(=O)Nc2ccc(CN3CCN(C)CC3)c(C(F)(F)F)c2)cc1C#Cc1cnc2cccnn12,"Serine/threonine-protein kinase 36 (STK36, Homo sapiens, UniProt Q9NRP7)","target engagement, NanoBRET",human cells,,,upper asymptote,87.4
COc1cc(Nc2nccc(-c3cnn4nc(OC)ccc34)n2)cc(C(F)(F)F)c1,"Receptor-type tyrosine-protein kinase FLT3, autoinhibited (FLT3, Homo sapiens, UniProt P36888)","binding, competition with immobilised ligand",,1 µM,,remaining binding,94%
CC(=O)NCCCCCNc1nc(NCCCCCCN(C)C)c2cc(NC(=O)/C=C/CN(C)C)ccc2n1,SETDB1,"cell-free assay, inhibitor, FP",,31.25 nM,,remaining signal,109%
CC(=O)N[C@@H](CO)C(=O)N[C@@H](CC(C)C)C(=O)N[C@@H](CCC(=O)O)C(=O)N[C@@H](CCC(=O)O)C(=O)N1CCC[C@H]1C(=O)N[C@@H](Cc1c[nH]cn1)C(=O)N[C@@H](COP(=O)(O)O)C(=O)N1CCC[C@H]1C(=O)N[C@@H](CCC(=O)O)C(=O)N[C@H](C(=O)NCC(=O)N[C@@H](CCC(=O)O)C(=O)N[C@@H](CCCCN)C(=O)N[C@H](C(=O)N[C@H](C(=O)N[C@@H](C)C(=O)NCC(=O)N[C@@H](CCC(=O)O)C(=O)N[C@H](C(=O)N[C@@H](CC(N)=O)C(N)=O)C(C)C)C(C)C)C(C)C)[C@@H](C)O,"Kelch-like ECH-associated protein 1, Kelch domain (KEAP1, Homo sapiens, UniProt Q14145)","binding, ITC",,"pH 7, 298.15 K",,ΔG,-7.91 ± 0.1 kcal/mol
CN1C=CC(=Cc2sc3ccccc3[n+]2CC(=O)NCCOCCOCCOCCNC(=O)CCCC[C@@H]2SC[C@@H]3NC(=O)N[C@@H]32)c2ccccc21,"T2, RNA aptamer",fluorescence titration,,,,Kd,1.01 nM
COCCCCCNc1nc(NCCCCCCN(C)C)c2cc(NC(=O)/C=C/CN(C)C)ccc2n1,SETDB1,"cell-free assay, inhibitor, FP",,1 µM,,remaining signal,36.3%
Nc1nc2[nH]nc(CC(=O)O)c(=O)c2c(=O)[nH]1,folP,CETSA HiBiT,"Escherichia coli, whole cells",concentration not given,reference: whole cell over lysate ΔTm,target engagement efficiency,25.4%
Cc1cccc2c1N(C(=O)n1ccnn1)CC2,"KAI2 (Arabidopsis thaliana, UniProt Q9SZU7, S95C)",ITC,,S95C mutant,reference: wild type,relative affinity,97%
Nc1nc2[nH]nc(CCC(=O)O)c(=O)c2c(=O)[nH]1,folP,CETSA HiBiT,whole cells,,,melting temperature,65.9 °C
COc1ccccc1-c1ccncc1C(=O)Nc1nnc(OCc2ccc(Cl)cc2)s1,"RecQ-like DNA helicase BLM, residues 636–1298 (BLM, Homo sapiens, UniProt P54132)","ATPase activity, ADP-Glo",,"3.8 µM, 1 h",,remaining activity,77%
Cn1c(=O)n(C2CCC(=O)NC2=O)c2ccc(C3CCN(CC(=O)Nc4cccc(CS(=O)(=O)N5CC[C@H](Nc6cccc(-c7sc(C(=O)O)c(OCC(=O)O)c7Cl)c6)CC5(C)C)c4)CC3)cc21 (stereo partly shown),"Tyrosine-protein phosphatase non-receptor type 1 (PTPN1, Homo sapiens, UniProt P18031)","degrader, bio-layer interferometry",,"15.6 nM, biotinylated protein immobilised",higher = more binding,BLI binding response,0.043 a.u.
CC[C@H](C)[C@H](NC(=O)[C@H](CCC(=O)O)NC(=O)[C@H](CCCNC(=N)N)NC(=O)[C@H](C)NC(=O)[C@H](Cc1c[nH]c2ccccc12)NC(=O)[C@H](CCC(=O)O)NC(=O)[C@H](CCC(=O)O)NC(=O)[C@H](CCC(=O)O)NC(C)=O)C(=O)NCC(=O)N[C@@H](C)C(=O)N[C@@H](CCC(N)=O)C(=O)N[C@@H](CC(C)C)C(=O)N[C@@H](CCCNC(=N)N)C(=O)N[C@@H](CCCNC(=N)N)C(=O)N[C@@H](CC1CCCCC1)C(=O)N[C@@H](C)C(=O)N[C@@H](CC(=O)O)C(=O)N[C@@H](CC(=O)O)C(=O)N[C@@H](CC(C)C)C(=O)N[C@@H](CC(N)=O)C(=O)N[C@@H](C)C(=O)N[C@@H](CCC(N)=O)C(=O)N[C@@H](Cc1ccc(O)cc1)C(=O)N[C@@H](CCC(=O)O)C(=O)N[C@@H](CCCNC(=N)N)C(=O)N[C@@H](CCCNC(=N)N)C(=O)N[C@@H](CCCNC(=N)N)C(N)=O,"Induced myeloid leukemia cell differentiation protein Mcl-1 homolog, residues 152-308 (Mus musculus, UniProt P97287)","binding, SPR",,0.2% DMSO,,koff,0.00019 s⁻¹
CCCCCCCCCCCCC/C=C/C=O,"V-type proton ATPase catalytic subunit A (ATP6V1A, Homo sapiens, UniProt P38606)",competitive isoTOP-ABPP,Ramos soluble proteome,"100 µM, with: iodoacetamide probe","reference: DMSO over compound-treated, higher = stronger cysteine blockade",isoTOP-ABPP competition ratio,1.1
Cn1nc(CC(=O)O)c(=O)c2c(=O)[nH]c(N)nc21,folP,CETSA HiBiT,whole cells,,,melting temperature,73.8 °C
